Assay results of several laboratories.
A part holds a random share of what one study measured. Substitutions count along the parent as printed.

Set 1
Target: Histone acetyltransferase KAT6A, both winged helices, GST fusion (KAT6A, Homo sapiens, UniProt Q92794, residues 1-181)
Technique: protein binding microarray
Form: double-stranded DNA, one strand shown
Sample: in vitro
Tested at: not given
Notes: 8-mer, flanks averaged, mean of 2 arrays, mostly near background
Relative to: not given
Direction: higher = stronger binding
Residues (chain): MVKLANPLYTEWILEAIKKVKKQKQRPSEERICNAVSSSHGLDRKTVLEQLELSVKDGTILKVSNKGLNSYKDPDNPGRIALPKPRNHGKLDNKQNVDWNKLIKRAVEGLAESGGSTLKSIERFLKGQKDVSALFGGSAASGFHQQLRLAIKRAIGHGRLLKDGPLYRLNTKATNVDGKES
| Oligonucleotide | E-score |
| --- | --- |
| CTGAGCTC | 0.0107 |
| ATAGTAGC | 0.109 |
| GGAATCCA | -0.0112 |
| ATGCGAGG | 0.0352 |
| CGCGCCGC | 0.377 |
| ACCGCGTC | 0.338 |
| ACGTCTTA | -0.0838 |
| CCTAACAG | -0.151 |
| TGGACAAA | -0.101 |
| ACAACTTC | -0.0631 |
| CACGAGAA | -0.132 |
| CGGTATCC | 0.196 |
| AGGAATGC | -6e-05 |
| ACAAAGCC | -0.0377 |
| AGACCACT | -0.254 |
| ATCCAAAG | -0.105 |
| AGCATAAA | -0.076 |
| ACGTGAGG | -0.0865 |
| CGGCGGGC | 0.353 |
| CCGGGCAG | 0.112 |
| ACCAAGTA | -0.153 |
| ATGACGGA | 0.121 |
| ATCAACAG | 0.00522 |
| TCTATAAA | -0.222 |
| ACGCAGTA | 0.00496 |

Set 2
Target: CCNA2, cyclin fold, Cln2 fusion (human)
Technique: yeast growth competition, sequencing
Sample: yeast
Notes: weak parent motif
Relative to: not given
Direction: higher = stronger binding
Starting sequence: PKN2 docking peptide (human); DSTVTKLDFDLEP
| Variant | normalised enrichment score |
| --- | --- |
| DSTVTKLDFALEP [D10A] | -0.518 |
| DSTVTKLDADLEP [F9A] | -0.531 |
| ASTVTKLDFDLEP [D1A] | -0.0774 |
| DSTVTKADFDLEP [L7A] | -0.514 |
| DSTVTKLDFDAEP [L11A] | -0.217 |
| DATVTKLDFDLEP [S2A] | -0.335 |

Set 3
Target: Hepatocyte nuclear factor 3-alpha (Foxa1, Mus musculus, UniProt P35582, residues 1-468, full length assumed)
UniProt P35582, sequence (whole entry, looked up): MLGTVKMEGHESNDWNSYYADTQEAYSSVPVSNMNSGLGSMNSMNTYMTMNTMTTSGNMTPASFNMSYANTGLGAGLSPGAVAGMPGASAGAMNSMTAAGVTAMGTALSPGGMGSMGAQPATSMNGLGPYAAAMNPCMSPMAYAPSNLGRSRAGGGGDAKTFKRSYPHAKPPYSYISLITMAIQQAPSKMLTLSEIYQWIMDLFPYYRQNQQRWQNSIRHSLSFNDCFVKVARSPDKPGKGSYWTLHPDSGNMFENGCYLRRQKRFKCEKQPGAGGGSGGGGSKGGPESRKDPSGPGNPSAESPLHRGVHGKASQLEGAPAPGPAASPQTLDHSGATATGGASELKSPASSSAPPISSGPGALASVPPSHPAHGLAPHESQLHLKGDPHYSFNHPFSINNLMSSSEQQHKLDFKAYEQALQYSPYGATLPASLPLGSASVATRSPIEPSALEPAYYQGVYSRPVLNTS
Technique: EMSA with sequencing
Form: double-stranded DNA, one strand shown
Sample: in vitro
Tested at: 10 and 20 nM
Notes: whole designed probe, mean of two concentrations, ends assumed
Relative to: negative control set to 0
Direction: higher = stronger binding
| Oligonucleotide | normalised bound fraction |
| --- | --- |
| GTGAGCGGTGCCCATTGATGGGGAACTCAGAGCTGTCAGCCTACTTGGCAGGCGACCTGACACTTTAGCTGAGTCACATTTAAAAACAATTTCCTAAGAAGGGAGTGGACTCCATGAGAGCAAACACCACCAGGCCACAGCTTAATTACTAAGTTGCCAACCTTTAGCTTTCCCCAGAGCCCCCTTATAAAACATTCAGATATCTACTGCCCAACAGTGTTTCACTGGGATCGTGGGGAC | 0.0752 ratio |
| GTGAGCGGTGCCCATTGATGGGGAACTTTGTGCTCCTTGCTCCTACTCCCAAAGCCTCAAATCTGCTATGTGGCCTTTCCCAGTTGGCTTCTTTTATTTTCTTAACTTCTCCCTTGTAATGTAATCTTGGGAAAGAGAAAGTGGTAGAAGAACAAAGAATAAGCATACAAAGTAGCTCCACTCCTTCTGCATAGAGCTTTAATAAGGAAATGGTGCCACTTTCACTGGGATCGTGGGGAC | 0.0161 ratio |
| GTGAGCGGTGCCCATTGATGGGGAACAGACTGGGAATCTGAGCAATGCTCATGGCAATAAGCCAGGACCAGGCCCTAAACATCTGGCTGCTCCACTGTATGGATCTTTGGCATGTTAAATGTCAACAGACCTTGTGGATATAAAGTTGACTCAGTCAGAAAACATCTACGGTCTACATGGAAAAGAAAGTCTTTTGGAAAGAAAAGAAGGCAGGGTGTCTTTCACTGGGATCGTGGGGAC | 0.173 ratio |
| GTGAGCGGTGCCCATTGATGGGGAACAGCTGAGAGTCATTTCCTCATCTTTATTCCAAACGAAGCTGGACACTCCCTTTTCATTTTTGAAAAGTAATCTGTGTGAGAAGGCAGCCAGCATGTTTACCCACTGGGCTTGGAGCCAGACTTCTTTCCCTGGTTCTTCCTCTCTCTGTTTCTCAATCTCCCCTGCTCTAAGATGGCCAGATATGAAAAGCTGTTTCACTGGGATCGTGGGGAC | 0.0875 ratio |
| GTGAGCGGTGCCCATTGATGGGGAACCCCTTGGAATGAAGGCAAATGAGGATTTAGAATACTTGCAGGTTGTTCTGTCAGTACTAATTTGAGTGCTAAAGTTCTATTTGCAAACCTAAGTAAACAGGAATGTAGACAGCTTGAACAAGATGAAATTGTGATATCGCCCAAAGGAACAAGCTGATCAGGGAAAGCTCAGCATGCATTTGAATCAAGAGCATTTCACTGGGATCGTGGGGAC | 0.355 ratio |

Set 4
Target: ABI1, truncated, D143A, DHFR fusion (Arabidopsis thaliana)
Technique: DHFR PCA, deep sequencing
Sample: yeast
Notes: methotrexate growth selection, single substitutions
Together with: (+)-ABA 2500 µM
Relative to: wild-type fitted maximum
Direction: higher = stronger binding
Starting sequence: PYL1, truncated, DHFR fusion (Arabidopsis thaliana); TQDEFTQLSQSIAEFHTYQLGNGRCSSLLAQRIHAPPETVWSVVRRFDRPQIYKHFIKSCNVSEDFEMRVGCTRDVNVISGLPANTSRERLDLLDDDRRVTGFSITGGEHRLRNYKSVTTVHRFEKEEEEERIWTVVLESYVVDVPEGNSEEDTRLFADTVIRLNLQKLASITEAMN
| Variant | relative binding score |
| --- | --- |
| V143G | 51.7% |
| Q31H | 96.4% |
| Q2C | 101% |
| L82V | 93.7% |
| T160E | 76.4% |
| L164H | 95.7% |
| D95P | -6.18% |
| A170R | 97.9% |
| S87R | 8.84% |
| A158F | 73.7% |
| P83E | 79.2% |
| T6K | 111% |
| M176R | 102% |
| H16D | 41.7% |

For quick reference, copied from above (set 3):
| Oligonucleotide | normalised bound fraction |
| --- | --- |
| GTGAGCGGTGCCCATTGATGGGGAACTTTGTGCTCCTTGCTCCTACTCCCAAAGCCTCAAATCTGCTATGTGGCCTTTCCCAGTTGGCTTCTTTTATTTTCTTAACTTCTCCCTTGTAATGTAATCTTGGGAAAGAGAAAGTGGTAGAAGAACAAAGAATAAGCATACAAAGTAGCTCCACTCCTTCTGCATAGAGCTTTAATAAGGAAATGGTGCCACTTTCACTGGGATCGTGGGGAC | 0.0161 ratio |
| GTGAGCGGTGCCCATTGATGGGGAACAGACTGGGAATCTGAGCAATGCTCATGGCAATAAGCCAGGACCAGGCCCTAAACATCTGGCTGCTCCACTGTATGGATCTTTGGCATGTTAAATGTCAACAGACCTTGTGGATATAAAGTTGACTCAGTCAGAAAACATCTACGGTCTACATGGAAAAGAAAGTCTTTTGGAAAGAAAAGAAGGCAGGGTGTCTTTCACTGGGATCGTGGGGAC | 0.173 ratio |
| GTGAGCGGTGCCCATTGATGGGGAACAGCTGAGAGTCATTTCCTCATCTTTATTCCAAACGAAGCTGGACACTCCCTTTTCATTTTTGAAAAGTAATCTGTGTGAGAAGGCAGCCAGCATGTTTACCCACTGGGCTTGGAGCCAGACTTCTTTCCCTGGTTCTTCCTCTCTCTGTTTCTCAATCTCCCCTGCTCTAAGATGGCCAGATATGAAAAGCTGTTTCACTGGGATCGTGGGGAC | 0.0875 ratio |
